Published values gathered from unrelated publications.
Each numbered part is a random draw from the data of one study; scales do not carry over between parts.

Series 1 — method: protein-binding microarray; form: double-stranded DNA, one strand shown; matrix: in vitro; tested at: 940 nM top; notes: 60-bp whole probe; together with: salmon DNA 0.4 mg/ml; reference: random background probes; direction: higher = stronger binding; quantity: fitted relative affinity; constant ends, left off below: GCCTAGCAC … GTCTTGATTCGCTTGACGCTGCTG
Target: Interferon regulatory factor 5, full length, phosphomimetic (IRF5, Homo sapiens, UniProt Q13568-2, residues 1-514, S451D/S453D/S456D/S462D)
Sequence = AACAGTTCATGTTTTGGAAAGTGCTAG; result = 0.0723 z-score
Sequence = TTATGTATCCTTCTCCTTTAGTGCTAG; result = 0.858 z-score
Sequence = TTAGGTATTGGGTTTCGGTTAGTGCTA; result = 7.32 z-score
Sequence = TTATATTTCAGTCTCGATTAGTGCTAG; result = 4.6 z-score
Sequence = TTACGTATCGGGACTGGGTTAGTGCTA; result = 2.64 z-score
Sequence = TCAAAAAATGGAAATCTAACTGTGCTA; result = -0.15 z-score
Sequence = GACGGTCTCGGTATCAGGACGTGCTAG; result = 4.11 z-score
Sequence = TCAGTTCTCAGCTTGGGACTGTGCTAG; result = 0.502 z-score
Sequence = TTAGAACTGGGGTATCGATCAGTGCTA; result = 2.27 z-score
Sequence = TTAGGTCTCCCTCTCCTTTAGTGCTAG; result = 0.516 z-score
Sequence = TTAGGACTGCTACTGCTGTAGTGCTAG; result = -0.73 z-score
Sequence = TTAGGACTGGACTATCGGTTCGTGCTA; result = -0.215 z-score
Sequence = TTAGGACTGGACTTTGGGTTAGTGCTA; result = -0.607 z-score
Sequence = GACGGTATCCTTCTTCTGACGTGCTAG; result = 0.873 z-score
Sequence = TTAGAGCTCCTCCTTCTCTAAGTGCTA; result = 0.142 z-score
Sequence = GGCATTTTCGGGTAGATGGCCGTGCTA; result = 2.62 z-score
Sequence = AACTGTCTGCCTTTCAATCCGTGCTAG; result = 0.348 z-score
Sequence = AGACTTCTCCATTTTTCTAGGTGCTAG; result = 1.1 z-score
Sequence = TCACCCCTAGGGGGCAGTATGTGCTAG; result = 0.693 z-score
Sequence = GACGGTTTCCTATCCCTGACGTGCTAG; result = 1.48 z-score
Sequence = TCACTTCTCCTCTAGGTTACTGTGCTA; result = 1.04 z-score

Series 2 — method: universal PBM; form: double-stranded DNA, one strand shown; matrix: in vitro; tested at: 600 nM; direction: higher = stronger binding; quantity: E-score
Target: Sal-like protein 4, full length isoform A (SALL4, Homo sapiens, UniProt Q9UJQ4, residues 1-1053)
Sequence of UniProt Q9UJQ4 (whole entry, looked up): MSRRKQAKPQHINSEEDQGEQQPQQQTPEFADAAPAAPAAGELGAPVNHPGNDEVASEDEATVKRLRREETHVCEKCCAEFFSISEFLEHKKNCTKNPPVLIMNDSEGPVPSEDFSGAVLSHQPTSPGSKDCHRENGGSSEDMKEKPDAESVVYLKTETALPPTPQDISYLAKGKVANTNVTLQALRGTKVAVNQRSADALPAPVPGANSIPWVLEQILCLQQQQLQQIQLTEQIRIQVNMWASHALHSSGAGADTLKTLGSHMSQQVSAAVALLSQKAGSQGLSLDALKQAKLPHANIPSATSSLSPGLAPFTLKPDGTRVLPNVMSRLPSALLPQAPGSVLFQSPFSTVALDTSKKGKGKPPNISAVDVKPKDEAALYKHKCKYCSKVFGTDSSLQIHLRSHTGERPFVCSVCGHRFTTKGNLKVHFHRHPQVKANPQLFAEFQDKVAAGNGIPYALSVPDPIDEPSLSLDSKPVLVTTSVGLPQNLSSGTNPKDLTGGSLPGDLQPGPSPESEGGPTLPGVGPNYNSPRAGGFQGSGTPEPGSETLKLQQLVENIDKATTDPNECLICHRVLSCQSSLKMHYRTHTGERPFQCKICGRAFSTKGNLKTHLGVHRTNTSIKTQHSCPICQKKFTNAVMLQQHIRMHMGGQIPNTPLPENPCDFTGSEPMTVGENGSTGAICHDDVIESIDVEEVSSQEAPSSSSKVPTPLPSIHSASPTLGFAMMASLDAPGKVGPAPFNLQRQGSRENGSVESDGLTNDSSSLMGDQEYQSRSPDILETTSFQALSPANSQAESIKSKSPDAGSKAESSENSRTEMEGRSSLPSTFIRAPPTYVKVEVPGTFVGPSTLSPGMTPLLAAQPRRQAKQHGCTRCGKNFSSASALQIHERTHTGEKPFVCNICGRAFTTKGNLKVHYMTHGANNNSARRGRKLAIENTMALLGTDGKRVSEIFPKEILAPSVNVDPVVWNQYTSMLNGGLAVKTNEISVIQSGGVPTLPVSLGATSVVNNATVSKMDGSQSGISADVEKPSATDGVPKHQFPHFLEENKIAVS
Notes: 8-mer, flanks averaged, mean of replicates
Sequence = ATACGCTC; result = 0.141
Sequence = AATAAGCA; result = 0.23
Sequence = GTGGTCTA; result = -0.11
Sequence = TAACCTGA; result = 0.054
Sequence = CGAGAGCA; result = -0.0619
Sequence = GACAACTC; result = -0.0185
Sequence = CCATATTC; result = 0.255
Sequence = GTGTCAAA; result = 0.108
Sequence = ACCTTCGG; result = -0.0657
Sequence = AAGTTCGC; result = -0.15
Sequence = GAGATACA; result = 0.266
Sequence = GTTGGCTA; result = -0.0674
Sequence = GCCGAGAA; result = -0.177
Sequence = GTATGCTA; result = 0.158
Sequence = AATCCTAA; result = 0.0878
Sequence = AAACTAAG; result = 0.234
Sequence = AAAAGTTG; result = 0.0855
Sequence = GCTTCAAC; result = -0.0992
Sequence = GCGTTTTA; result = 0.0749

Series 3 — method: RNA Bind-n-Seq; form: RNA; matrix: in vitro; tested at: not given; reference: input RNA pool; direction: higher = stronger binding; quantity: bound/input enrichment
Target: RING finger protein unkempt homolog, zinc fingers 1-6, GST-SBP tag (UNK, Homo sapiens, UniProt Q9C0B0, residues 30-357)
Sequence of UniProt Q9C0B0 (30-357, looked up): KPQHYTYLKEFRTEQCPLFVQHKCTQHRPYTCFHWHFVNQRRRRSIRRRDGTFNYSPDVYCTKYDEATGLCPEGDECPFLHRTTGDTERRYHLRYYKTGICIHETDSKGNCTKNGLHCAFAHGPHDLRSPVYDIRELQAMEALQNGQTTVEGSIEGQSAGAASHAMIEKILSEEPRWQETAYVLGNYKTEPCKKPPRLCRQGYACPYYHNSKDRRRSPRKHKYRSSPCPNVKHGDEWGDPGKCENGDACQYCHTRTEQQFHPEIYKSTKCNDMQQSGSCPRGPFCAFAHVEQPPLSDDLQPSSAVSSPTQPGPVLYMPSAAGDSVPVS
Notes: RNA with constant flanks, human-mouse chimeric sites, ends assumed
Sequence = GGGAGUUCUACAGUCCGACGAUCGAUCAUGAACCACCAUCCAGAAAUGAAAUGAGAUUACCCAGACGAGCCAAAACAGCUGCGCUACAGAAAAGUAAACUUAACCUUGCAGAGUUCCUUAAUGAAGAUACUAAGUUAGGAAGCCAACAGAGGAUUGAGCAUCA; result = 0.459 ratio
Sequence = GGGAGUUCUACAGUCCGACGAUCUUGAAAAACACAGAUAUCAAAGUUGUUGACUUUGGAAGUGCAACGUAUGAUGAUGAACAUCACAGUACUUUGGUGUCUACCCGGCACUACAGAGCUCCCGAGGUCAUUUUGGCUUUAGGUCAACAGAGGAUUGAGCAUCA; result = 0.226 ratio
Sequence = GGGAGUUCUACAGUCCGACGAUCAGAAAGCAAAACUUGGAACGAUUUAAGAAAGGAGACGUAAGAUUCUUGAUUUGCACAGAUGUAGCUGCUAGAGGGAUUGAUAUCCAUGGCGUUCCUUAUGUUAUAAAUGUCACUCUGCCUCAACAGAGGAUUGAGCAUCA; result = 0.184 ratio
Sequence = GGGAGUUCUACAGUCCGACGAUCAGGAGGAGGUUAAAGGGUGAGAGUGGGGUGGAAGACUGUGUCAUGGCUCUGGAGACACUGUUCAGUGUUCUGCUUUCUCUGUGCAGACUGAUGGCCCCUUACACGCCUUUUCUCACUGAGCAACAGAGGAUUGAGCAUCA; result = 0.0774 ratio
Sequence = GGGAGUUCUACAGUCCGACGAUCAUGCAGUAUGAGACCAACAGCAUGGACUUCAAAGUUGGGGCAGAUGGGACAGUCUUCGCCACCCGGGAGCUGCAGGUCCCCUCAGAGCAGGUGGCGUUCACGGUGACUGCAUGGGACAGCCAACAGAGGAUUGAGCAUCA; result = 0.191 ratio
Sequence = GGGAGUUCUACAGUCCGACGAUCGUAUUUGUGCGCUCCCCGUUUUUAAAUUUAAGUGUAUUUUUAUAAGAUACAUGUAUUUACAAUUGAGCUUUUGUUACAUAAUGCUGAAAUGCUACUGGAGAUUAUGAAAAAUGUUUCAAUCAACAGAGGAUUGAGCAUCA; result = 0.359 ratio
Sequence = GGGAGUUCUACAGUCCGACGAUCCUGGCACUCUAUCAGAUAGAUUACUUUUUUAAUGUAGAUAAAAUUUCAAAAAUGAAUGGCUACUUUACACGUUUAACUAGGGUUUUACUAUAUAUGUGUACAUAUGUAUAUAUAUAUAUACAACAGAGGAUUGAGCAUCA; result = 43 ratio
Sequence = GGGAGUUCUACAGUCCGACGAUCAAUUUCCUGUCAUACUUUUUAGACAUUCACAUCAGACUUACAGAGCACCUGGCCACAUUCUAGGUUUGAAUUAUUUCUCAGCUAUGGAUAUGAUCAAAUGAGAACACUGGCAGCCAGAUGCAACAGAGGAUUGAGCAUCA; result = 0.888 ratio
Sequence = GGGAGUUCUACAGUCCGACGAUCUUGAAAACUGAUUCAAGUAAGUUUGAGUAUCACAAUGUUAGCUUUCUAAUUCCAUAAAAGUACUUGGUUUUUACAGUAACCCCACAUACAUCACCCCCCGUUUAUAAGUAAAGAGCAACUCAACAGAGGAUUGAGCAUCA; result = 2.03 ratio
Sequence = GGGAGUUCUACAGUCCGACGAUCAUGGAGAAGGAUUCUCUGCCUCGCUUUGUGCGCUCUGAAUUUUAUAAGGAGCUAAUCAAGUAGUCAUCUGGUCAGGCUUCCAAAAGUUGCCCUGUGAGUUGAGUUACAUCCUUUGUAGCACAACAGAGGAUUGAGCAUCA; result = 0.141 ratio
Sequence = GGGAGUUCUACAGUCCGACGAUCCUGAGGAAUACCACUGAAGAGACAUUAAAGAAUCAUUUGAGGGCUCUGUUCGUGCAAGAAUAGUCACUGAUCGGGAAACUGGUUCUUCCAAAGGGUUUGGUUUUGUAGACUUUAAUAGUGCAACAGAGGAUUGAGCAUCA; result = 0.947 ratio

Series 4 — method: RNA Bind-n-Seq; form: RNA; matrix: in vitro; tested at: 365 nM; reference: no-protein control; direction: higher = stronger binding; quantity: RBNS enrichment (R)
Target: RNA binding protein fox-1 homolog 2, RRM domain, GST-SBP tag (RBFOX2, Homo sapiens, UniProt O43251-10, residues 100-194)
Notes: natural RNA segment, single round, ends assumed
Construct (chain): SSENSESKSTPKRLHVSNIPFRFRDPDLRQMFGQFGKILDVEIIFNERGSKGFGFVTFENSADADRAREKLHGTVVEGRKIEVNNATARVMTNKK
Sequence = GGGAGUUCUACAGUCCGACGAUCCCUUCAAAGCAGGGAAGAAUACCUGACUCGUUGCUUCGCAGAGCUGCUUUGACCUGCAGAGACUUGUAGACCUCUUCUCUUCUCUGUCCCCUUGGUUACCACCUACCCACUGGAAUUCUCGGGUGCCAA; result = 0.903
Sequence = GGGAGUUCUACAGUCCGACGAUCCUAUGGCUAUCCGAAUUCUCUGAAAAAAUAAUAAAAGUCCCCUCUAUUAUAUGAGCCUGUACAGAAAUAUGGCUAUCAGCUGCUUUUUUUUUGCCGGGGGAGUGGGGACAUGGAAUUCUCGGGUGCCAA; result = 0.596
Sequence = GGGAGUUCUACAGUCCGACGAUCCCGUGGAGGUCCUGUCCACAGCUGGACAGGAGAGACACCGCCUGCGGUGGUUCAUUCCUUUCAGCCAUCGUCCUUUCCUCCGGCGGACAGCUGCUUACAUGUUCAUCUCUUGGAAUUCUCGGGUGCCAA; result = 0.369
Sequence = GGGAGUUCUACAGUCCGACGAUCAUGUCAUUUUCCUACUGCCAUAGAUACCCUAAGCCCAGGGCCCCUUGAGGCCCAGACUCAGCCUGCCCACUGGUGCCGGAGACGGAGUGGAGUGGGCCUGGAUCCGAGGGUGGAAUUCUCGGGUGCCAA; result = 0.205
Sequence = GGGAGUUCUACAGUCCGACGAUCUCCUAGGGCCUGUAGUGACCGGCAGGGCUGGGGUGAGACCCCUCCCUUCCAGAAUCCAGGCCCCAUCUCCCCCAACUCCACAGCCCCUCCCGAGCCUCAAGGCAAGUCCAUGGAAUUCUCGGGUGCCAA; result = 0.777
Sequence = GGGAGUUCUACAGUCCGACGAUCCUUGCUGGAAAUGUGCCUACAAUGGCCUUGUAACAGCCAUUGUUCCCAACAGCAUCACUUAGGGGUGUGAAAAGAAGUAUUUUUGAACCUGUUGUCUGGUUUUGAAAAACUGGAAUUCUCGGGUGCCAA; result = 0.255
Sequence = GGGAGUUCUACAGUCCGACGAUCCAGAACGCCUGUGUUUACAUUGUUUUUAUGGAACUAGCAGAAUAAAACAUCUAUUUUAAAAAUGAAAGCCAUUGUUUCUCUAAUUUAUCUGACAAAGUGAGCAGCUUAAAUGGAAUUCUCGGGUGCCAA; result = 0.436
Sequence = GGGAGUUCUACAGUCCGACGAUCCACAAGACCCUGUCUCAACCAGAAAAGAAAAAUGUGUUUGCCAAAUCAUAACUCAGGGGCUUUGAACAGAGCUGUCUCUGUUUCAAUUGGCAUCCUUGCUCAUCCAUUCCUGGAAUUCUCGGGUGCCAA; result = 0.551
Sequence = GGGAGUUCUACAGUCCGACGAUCAAUCUUCAAAGGUACUUAUUUCCAAAUAUGGAGGGAAUGAAUCUGAAGAGGGAACAAUGGCGUUUUUCGAACUUAUUUCUCUCUAAUCCAGCCUGGAGGAUUUUUAGCCGUGGAAUUCUCGGGUGCCAA; result = 0.316
Sequence = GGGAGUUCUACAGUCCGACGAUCUCAGGAUGAUCUCAGCACUGUGGGUCACCGUGCCGUGCCCAGGAUCCGAGGCCACCCUUCACGGCGAGCCUCGUGCUGGGCUCUUACCUGUGCUUUCUUGCUCUGGACUGUGGAAUUCUCGGGUGCCAA; result = 0.341
Sequence = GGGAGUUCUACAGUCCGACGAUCCAAGCCAUUCUCCAAGGGGGCCUGGCACAGUAAGCACUUCAAGCAUGAAUUGGGUAAGCUGGUUUGUUUGACUAGGAAACGGUUCCACAGAGUAUUUGCCACAAGAGGAGUGGAAUUCUCGGGUGCCAA; result = 23.1
Sequence = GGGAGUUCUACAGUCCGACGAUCUAAUCAAAUUAACUGAUUUUGUUUUCACCCUAAAUACAUACAACCAUUCCUCCACUUUCAUAAAUUUGACAAAUAAUAAGCCUCUCCCAUUAGGAUUUUCUGUUUUAUAGUGGAAUUCUCGGGUGCCAA; result = 1.56

Excerpt of the above (series 2):
Sequence = AATAAGCA; result = 0.23
Sequence = GCCGAGAA; result = -0.177
Sequence = AATCCTAA; result = 0.0878
Sequence = GTGTCAAA; result = 0.108
Sequence = TAACCTGA; result = 0.054
Sequence = AAAAGTTG; result = 0.0855
Sequence = GTGGTCTA; result = -0.11
Sequence = AAGTTCGC; result = -0.15
